Experimental data pooled from the literature.
Parts stem from different laboratories: compare values within a part only.

Set 1
Target: Sal-like protein 4, full length isoform A (SALL4, Homo sapiens, UniProt Q9UJQ4, residues 1-1053)
Chain of UniProt Q9UJQ4 (whole entry, looked up): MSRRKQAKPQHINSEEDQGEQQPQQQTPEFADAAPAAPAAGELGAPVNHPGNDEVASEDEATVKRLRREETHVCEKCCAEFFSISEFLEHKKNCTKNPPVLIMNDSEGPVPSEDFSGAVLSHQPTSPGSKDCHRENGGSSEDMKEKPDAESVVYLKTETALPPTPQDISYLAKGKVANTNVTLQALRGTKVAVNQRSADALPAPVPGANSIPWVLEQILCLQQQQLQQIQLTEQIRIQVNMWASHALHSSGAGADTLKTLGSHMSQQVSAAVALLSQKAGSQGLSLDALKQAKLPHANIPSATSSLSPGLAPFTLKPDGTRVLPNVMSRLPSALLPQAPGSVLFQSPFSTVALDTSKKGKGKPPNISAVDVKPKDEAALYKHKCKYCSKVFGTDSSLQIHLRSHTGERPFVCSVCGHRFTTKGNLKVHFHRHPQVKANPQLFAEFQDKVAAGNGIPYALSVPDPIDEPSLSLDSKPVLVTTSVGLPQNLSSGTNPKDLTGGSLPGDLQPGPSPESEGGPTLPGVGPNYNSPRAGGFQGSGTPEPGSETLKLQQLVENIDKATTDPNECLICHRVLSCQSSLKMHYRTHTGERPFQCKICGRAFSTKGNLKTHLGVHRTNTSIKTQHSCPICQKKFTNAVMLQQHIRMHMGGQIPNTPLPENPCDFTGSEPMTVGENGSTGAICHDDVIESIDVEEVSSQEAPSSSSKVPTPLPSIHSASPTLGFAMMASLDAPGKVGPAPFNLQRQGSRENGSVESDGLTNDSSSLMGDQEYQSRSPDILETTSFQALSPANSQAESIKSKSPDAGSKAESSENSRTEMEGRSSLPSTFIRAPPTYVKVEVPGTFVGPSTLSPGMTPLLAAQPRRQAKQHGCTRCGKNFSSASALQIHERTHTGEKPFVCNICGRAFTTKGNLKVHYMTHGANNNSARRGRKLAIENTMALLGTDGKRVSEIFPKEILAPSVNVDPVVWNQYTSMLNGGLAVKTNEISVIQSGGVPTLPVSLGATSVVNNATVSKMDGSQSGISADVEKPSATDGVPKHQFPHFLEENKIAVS
Method: universal PBM
Form: double-stranded DNA, one strand shown
Sample: in vitro
Concentration: 600 nM
Setting: 8-mer, flanks averaged, mean of replicates
Direction: higher = stronger binding
`CGTGTGGA` has an E-score of -0.306.
`GGGCGGAA` has an E-score of -0.197.
For `CCGGGCAC`, the E-score was -0.349.
`GAATTTAA` has an E-score of 0.125.

Set 2
Target: Centromere-binding protein 1, full length, N-terminal tag (CBF1, Saccharomyces cerevisiae, UniProt P17106, residues 1-351)
Chain of UniProt P17106 (whole entry, looked up): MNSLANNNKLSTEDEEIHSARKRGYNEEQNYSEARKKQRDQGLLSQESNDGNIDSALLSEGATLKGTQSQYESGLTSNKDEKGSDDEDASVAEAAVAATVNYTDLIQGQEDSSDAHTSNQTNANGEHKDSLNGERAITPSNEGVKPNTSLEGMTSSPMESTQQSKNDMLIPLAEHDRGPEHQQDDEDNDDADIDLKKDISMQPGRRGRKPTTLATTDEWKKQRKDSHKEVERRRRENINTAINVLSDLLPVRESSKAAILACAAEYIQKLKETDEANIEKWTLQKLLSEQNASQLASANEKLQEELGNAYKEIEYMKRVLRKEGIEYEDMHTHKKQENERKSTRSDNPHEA
Method: protein-binding microarray
Form: double-stranded DNA, one strand shown
Sample: in vitro
Concentration: 0.8 µM
Setting: whole 60-bp probe, no competitor
Direction: higher = stronger binding
The fluorescence intensity of `CCTAACTACTATATGCACGAAAAATAGCTTCGTACAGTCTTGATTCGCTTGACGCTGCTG` is reported as 514 a.u.
`GAATTTGATAATTCACGTGTAATTAAGAACATCTAGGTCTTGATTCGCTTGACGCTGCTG` has a fluorescence intensity of 3770 a.u.
`CCTAACTACTATATCATCGTGTAATAGCTTCGTACAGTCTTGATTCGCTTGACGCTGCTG` has a fluorescence intensity of 530 a.u.
For `GAATGACTTCATACTTGCGTCACCCCGATTTTATAGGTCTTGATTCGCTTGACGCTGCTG`, the fluorescence intensity was 533 a.u.
`GAAAAAAAGGTTTGTCACGAGCACCTAACTACTTAGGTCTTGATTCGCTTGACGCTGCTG` has a fluorescence intensity of 1310 a.u.

Set 3
Target: Histone acetyltransferase KAT6A, both winged helices, GST fusion (KAT6A, Homo sapiens, UniProt Q92794, residues 1-181)
Method: protein binding microarray
Form: double-stranded DNA, one strand shown
Sample: in vitro
Concentration: not given
Setting: 8-mer, flanks averaged, mean of 2 arrays, mostly near background
Relative to: not given
Direction: higher = stronger binding
Residues (chain): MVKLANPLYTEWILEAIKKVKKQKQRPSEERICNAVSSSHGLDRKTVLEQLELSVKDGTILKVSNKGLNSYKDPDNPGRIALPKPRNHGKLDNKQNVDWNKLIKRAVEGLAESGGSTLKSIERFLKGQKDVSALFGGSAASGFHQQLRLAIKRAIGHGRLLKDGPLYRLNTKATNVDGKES
With `GGTAGCGA` the E-score was 0.0899.
With `ACGGGGGC` the E-score was 0.0992.
With `CCTTGGTA` the E-score was -0.0426.
With `ATGTAACC` the E-score was 0.163.
`AGTACTTG` has an E-score of -0.0196.

Other studies, line by line
`PhoQ, residues 284 288 289 292 302 303 AEGLLW` gave a fold induction of 4.37 (PhoP, residues 12 14 15 18 19 IQSYL (Escherichia coli, UniProt P23836); Sort-seq, refers to: YFP reporter; E. coli; PhoQ-PhoP variant library, together with: 10 µM Mg2+; relative to: high Mg2+ state, higher = stronger signaling).
